{"data": "Experimental data of several laboratories", "DRD4": "D(4) dopamine receptor (DRD4, Homo sapiens, UniProt P21917)", "DRD4 del265-296": "D(4) dopamine receptor (DRD4, Homo sapiens, UniProt P21917, del265-296)", "note": "Protocols differ between the studies behind these lines.", "sequence of UniProt P21917 (whole entry, unmodified, looked up)": "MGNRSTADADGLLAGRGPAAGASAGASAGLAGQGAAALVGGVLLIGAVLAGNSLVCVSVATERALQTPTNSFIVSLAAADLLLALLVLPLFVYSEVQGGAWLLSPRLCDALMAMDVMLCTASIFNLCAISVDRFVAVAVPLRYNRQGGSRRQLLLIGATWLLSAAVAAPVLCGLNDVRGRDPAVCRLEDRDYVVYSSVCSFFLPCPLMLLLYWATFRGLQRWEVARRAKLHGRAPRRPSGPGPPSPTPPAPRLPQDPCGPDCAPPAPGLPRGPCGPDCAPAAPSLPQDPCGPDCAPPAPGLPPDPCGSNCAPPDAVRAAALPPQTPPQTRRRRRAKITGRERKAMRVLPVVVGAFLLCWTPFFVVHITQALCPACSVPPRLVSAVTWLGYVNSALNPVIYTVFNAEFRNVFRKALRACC"}
{"Structure (SMILES)": "FC1(F)CCN(Cc2ncc3ccccn23)CC1COc1cccc(Cl)n1 (centres unmarked)", "target": "DRD4", "read-out": "ligand displacement", "technique": "radioligand", "concentration": "10 µM", "inhibition [%]": 11}
{"Structure (SMILES)": "COc1ccc(C(=O)Nc2c(-c3cccs3)nc3ccccn23)cc1", "target": "DRD4", "read-out": "ligand displacement", "technique": "radioligand", "concentration": "10 µM", "inhibition [%]": "< 50"}
{"Structure (SMILES)": "Fc1cccc(OCC2CN(Cc3cn4ccccc4n3)CCC2(F)F)n1 (centres unmarked)", "target": "DRD4", "read-out": "ligand displacement", "technique": "radioligand", "concentration": "10 µM", "inhibition [%]": 41}
{"Structure (SMILES)": "CC1Cc2ccccc2N1C(=O)CN1CCN(c2ccccc2)CC1 (centres unmarked)", "target": "DRD4", "read-out": "radioligand binding", "concentration": "concentration not given", "with": "[3H]N-methylspiperone", "inhibition [%]": 6.9}
{"Structure (SMILES)": "COCC(=O)N1CCc2cc(-c3csc(NC(=O)c4cc(OC)cc(OC)c4)n3)ccc21", "target": "DRD4 del265-296", "read-out": "cell-free assay", "concentration": "10 µM", "inhibition [%]": -6}
{"Structure (SMILES)": "COc1ccc(CN2CC(COc3cccc(F)n3)CC(F)(F)C2)cc1F (centres unmarked)", "target": "DRD4", "read-out": "ligand displacement", "technique": "radioligand", "concentration": "10 µM", "inhibition [%]": 13}
{"Structure (SMILES)": "Cc1[nH]nc2c1N=C(c1ccccc1Cl)c1cnc(N3CCOCC3)cc1N2", "target": "DRD4 del265-296", "read-out": "cell-free assay", "concentration": "10 µM", "inhibition [%]": -6}
{"Structure (SMILES)": "O=C(CN1CCO[C@@H](COc2cccc(Cl)c2)C1)N1CCc2ccccc21", "target": "DRD4", "read-out": "radioligand binding", "concentration": "concentration not given", "with": "[3H]N-methylspiperone", "inhibition [%]": 96.6}
{"Structure (SMILES)": "Cn1ccc2cc(-n3c(=O)[nH]c4sc5c(c4c3=O)CCCC5)ccc21", "target": "DRD4", "read-out": "cell-free assay", "technique": "radioligand", "concentration": "10 µM", "inhibition [%]": 2}
{"Structure (SMILES)": "Cc1ccnc(OC[C@H]2CN(CCN3CCc4ccccc43)CCO2)c1", "target": "DRD4", "read-out": "radioligand binding", "concentration": "concentration not given", "with": "[3H]N-methylspiperone", "inhibition [%]": 81.1}
{"Structure (SMILES)": "Brc1ccccc1-c1nnc(CSc2nnnn2-c2ccccc2)o1", "target": "DRD4", "read-out": "ligand displacement", "technique": "radioligand", "concentration": "10 µM", "inhibition [%]": -42}
{"note": "Some of these lines once more:"}
{"Structure (SMILES)": "CC1Cc2ccccc2N1C(=O)CN1CCN(c2ccccc2)CC1 (centres unmarked)", "target": "DRD4", "read-out": "radioligand binding", "concentration": "concentration not given", "with": "[3H]N-methylspiperone", "inhibition [%]": 6.9}
